Published values gathered from unrelated publications.
“And” joins repeats or separate records; there may be more than shown.
OPRD1: Delta-type opioid receptor (OPRD1, Homo sapiens, UniProt P41143)
Sequence of UniProt P41143 (whole entry, looked up): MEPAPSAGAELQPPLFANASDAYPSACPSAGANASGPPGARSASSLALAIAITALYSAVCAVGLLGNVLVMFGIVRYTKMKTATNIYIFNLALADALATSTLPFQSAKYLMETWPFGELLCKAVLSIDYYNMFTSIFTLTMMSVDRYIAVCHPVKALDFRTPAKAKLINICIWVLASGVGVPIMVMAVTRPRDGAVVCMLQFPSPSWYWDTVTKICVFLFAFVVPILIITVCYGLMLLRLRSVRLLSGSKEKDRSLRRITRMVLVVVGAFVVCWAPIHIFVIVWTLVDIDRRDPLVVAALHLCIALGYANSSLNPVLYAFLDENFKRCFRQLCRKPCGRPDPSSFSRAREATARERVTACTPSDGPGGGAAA
CNR1: Cannabinoid receptor 1 (CNR1, Homo sapiens, UniProt P21554)
Sequence of UniProt P21554 (whole entry, looked up): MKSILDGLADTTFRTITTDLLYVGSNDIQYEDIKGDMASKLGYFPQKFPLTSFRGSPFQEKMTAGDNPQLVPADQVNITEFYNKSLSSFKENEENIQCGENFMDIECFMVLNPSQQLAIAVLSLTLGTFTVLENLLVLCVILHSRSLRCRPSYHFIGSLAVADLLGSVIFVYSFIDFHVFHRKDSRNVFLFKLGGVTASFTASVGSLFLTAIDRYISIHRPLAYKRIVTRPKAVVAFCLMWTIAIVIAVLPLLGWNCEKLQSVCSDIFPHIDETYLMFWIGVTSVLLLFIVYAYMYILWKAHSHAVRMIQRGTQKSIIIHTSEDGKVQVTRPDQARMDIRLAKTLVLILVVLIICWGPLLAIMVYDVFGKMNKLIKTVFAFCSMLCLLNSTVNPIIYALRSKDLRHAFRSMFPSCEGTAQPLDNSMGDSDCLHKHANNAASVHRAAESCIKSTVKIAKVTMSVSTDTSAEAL
HTR2C: 5-hydroxytryptamine receptor 2C (HTR2C, Homo sapiens, UniProt P28335)
Sequence of UniProt P28335 (whole entry, looked up): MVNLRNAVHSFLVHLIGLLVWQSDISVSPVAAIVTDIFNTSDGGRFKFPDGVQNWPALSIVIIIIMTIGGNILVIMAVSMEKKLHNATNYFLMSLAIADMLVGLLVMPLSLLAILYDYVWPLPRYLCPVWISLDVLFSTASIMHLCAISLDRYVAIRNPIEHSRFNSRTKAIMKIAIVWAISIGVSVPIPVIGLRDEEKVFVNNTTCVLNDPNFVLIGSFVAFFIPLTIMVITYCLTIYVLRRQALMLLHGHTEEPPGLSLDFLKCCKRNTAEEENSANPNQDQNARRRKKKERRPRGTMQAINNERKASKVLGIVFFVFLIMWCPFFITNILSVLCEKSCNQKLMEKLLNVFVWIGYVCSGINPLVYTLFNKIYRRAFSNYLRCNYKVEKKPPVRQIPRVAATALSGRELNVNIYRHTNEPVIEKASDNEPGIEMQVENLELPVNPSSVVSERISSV
CES2: Cocaine esterase (CES2, Homo sapiens, UniProt O00748)
Sequence of UniProt O00748 (whole entry, looked up): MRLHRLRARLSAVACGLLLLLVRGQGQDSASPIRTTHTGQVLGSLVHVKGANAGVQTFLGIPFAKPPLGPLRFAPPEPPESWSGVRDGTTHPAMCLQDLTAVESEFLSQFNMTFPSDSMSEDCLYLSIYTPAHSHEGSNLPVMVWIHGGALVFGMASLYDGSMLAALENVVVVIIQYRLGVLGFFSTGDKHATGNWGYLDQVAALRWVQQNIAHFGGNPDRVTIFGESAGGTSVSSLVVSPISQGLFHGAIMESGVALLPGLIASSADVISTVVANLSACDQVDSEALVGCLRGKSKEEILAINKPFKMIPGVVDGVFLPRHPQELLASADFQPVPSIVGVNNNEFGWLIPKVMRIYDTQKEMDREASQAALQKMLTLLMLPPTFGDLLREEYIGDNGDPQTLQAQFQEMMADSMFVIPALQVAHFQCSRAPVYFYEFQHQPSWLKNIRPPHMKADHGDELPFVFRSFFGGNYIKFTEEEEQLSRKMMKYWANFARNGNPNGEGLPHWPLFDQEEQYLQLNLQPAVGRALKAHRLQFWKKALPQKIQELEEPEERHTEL
PFF0160c: Dihydroorotate dehydrogenase (quinone), mitochondrial (PFF0160c, Plasmodium falciparum, UniProt Q08210)
Sequence of UniProt Q08210 (whole entry, looked up): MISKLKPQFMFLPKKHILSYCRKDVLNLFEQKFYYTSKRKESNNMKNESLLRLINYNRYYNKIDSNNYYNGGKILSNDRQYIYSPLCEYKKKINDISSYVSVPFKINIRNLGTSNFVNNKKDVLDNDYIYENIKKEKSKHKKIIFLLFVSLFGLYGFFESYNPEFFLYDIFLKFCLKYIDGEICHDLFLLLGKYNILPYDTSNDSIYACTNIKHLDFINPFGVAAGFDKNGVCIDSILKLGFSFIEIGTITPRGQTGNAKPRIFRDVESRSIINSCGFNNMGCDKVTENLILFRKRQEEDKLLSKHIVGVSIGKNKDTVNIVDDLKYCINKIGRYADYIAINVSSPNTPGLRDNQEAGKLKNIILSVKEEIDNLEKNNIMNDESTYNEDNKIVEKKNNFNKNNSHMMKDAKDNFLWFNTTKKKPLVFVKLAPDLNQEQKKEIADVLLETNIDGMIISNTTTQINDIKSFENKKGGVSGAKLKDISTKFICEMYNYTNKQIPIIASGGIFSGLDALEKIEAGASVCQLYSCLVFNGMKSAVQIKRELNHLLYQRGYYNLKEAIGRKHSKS
Htr2c: 5-hydroxytryptamine receptor 2C (Htr2c, Mus musculus, UniProt P34968)
Sequence of UniProt P34968 (whole entry, looked up): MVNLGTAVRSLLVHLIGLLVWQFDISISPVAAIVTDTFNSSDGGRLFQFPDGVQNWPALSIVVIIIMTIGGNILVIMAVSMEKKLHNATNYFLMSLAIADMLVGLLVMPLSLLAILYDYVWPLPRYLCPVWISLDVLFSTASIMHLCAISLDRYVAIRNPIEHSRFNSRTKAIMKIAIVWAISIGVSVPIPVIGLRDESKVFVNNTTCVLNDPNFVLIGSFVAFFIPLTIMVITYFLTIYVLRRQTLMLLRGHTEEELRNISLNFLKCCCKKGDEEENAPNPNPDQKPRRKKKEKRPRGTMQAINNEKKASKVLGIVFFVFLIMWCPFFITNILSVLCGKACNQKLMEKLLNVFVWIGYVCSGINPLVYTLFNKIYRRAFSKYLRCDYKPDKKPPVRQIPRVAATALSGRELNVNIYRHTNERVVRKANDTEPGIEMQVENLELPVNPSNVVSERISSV
Sequence of UniProt Q61327 (whole entry, looked up): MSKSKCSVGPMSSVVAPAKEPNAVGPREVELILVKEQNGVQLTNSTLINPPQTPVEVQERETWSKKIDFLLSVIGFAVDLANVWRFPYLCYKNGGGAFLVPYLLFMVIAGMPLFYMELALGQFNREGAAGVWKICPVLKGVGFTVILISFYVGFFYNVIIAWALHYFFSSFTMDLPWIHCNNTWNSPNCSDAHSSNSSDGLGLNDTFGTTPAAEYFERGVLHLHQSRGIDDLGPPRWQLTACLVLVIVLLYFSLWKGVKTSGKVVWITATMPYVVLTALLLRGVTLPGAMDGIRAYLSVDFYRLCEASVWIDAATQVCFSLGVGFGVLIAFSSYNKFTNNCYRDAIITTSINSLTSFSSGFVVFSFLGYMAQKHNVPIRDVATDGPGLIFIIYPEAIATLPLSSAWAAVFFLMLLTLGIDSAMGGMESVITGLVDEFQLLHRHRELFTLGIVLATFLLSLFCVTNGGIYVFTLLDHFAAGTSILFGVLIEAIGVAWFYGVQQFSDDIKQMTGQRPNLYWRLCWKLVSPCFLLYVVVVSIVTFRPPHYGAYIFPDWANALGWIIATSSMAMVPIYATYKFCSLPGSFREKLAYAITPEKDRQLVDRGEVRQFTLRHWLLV
Sequence of UniProt P9WKE1 (whole entry, looked up): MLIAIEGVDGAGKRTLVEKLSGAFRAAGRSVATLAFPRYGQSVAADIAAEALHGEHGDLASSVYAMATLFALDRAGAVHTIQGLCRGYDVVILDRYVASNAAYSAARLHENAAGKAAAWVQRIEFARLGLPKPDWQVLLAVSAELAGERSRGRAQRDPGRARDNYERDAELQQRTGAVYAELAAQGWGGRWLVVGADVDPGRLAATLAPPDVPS
Sequence of UniProt P35363 (whole entry, looked up): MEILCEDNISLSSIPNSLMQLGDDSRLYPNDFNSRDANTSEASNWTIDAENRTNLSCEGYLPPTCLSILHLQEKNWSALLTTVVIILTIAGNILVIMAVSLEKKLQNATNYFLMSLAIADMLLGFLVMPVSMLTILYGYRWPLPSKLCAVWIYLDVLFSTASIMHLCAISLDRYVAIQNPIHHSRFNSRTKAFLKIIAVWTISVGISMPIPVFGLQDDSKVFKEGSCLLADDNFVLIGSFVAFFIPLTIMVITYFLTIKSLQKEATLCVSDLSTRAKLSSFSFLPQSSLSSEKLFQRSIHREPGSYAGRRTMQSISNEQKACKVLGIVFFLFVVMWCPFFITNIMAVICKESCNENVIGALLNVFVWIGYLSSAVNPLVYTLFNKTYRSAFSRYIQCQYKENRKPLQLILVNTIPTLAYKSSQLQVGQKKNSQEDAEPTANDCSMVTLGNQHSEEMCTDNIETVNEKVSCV
Sequence of UniProt Q5BJF2 (whole entry, looked up): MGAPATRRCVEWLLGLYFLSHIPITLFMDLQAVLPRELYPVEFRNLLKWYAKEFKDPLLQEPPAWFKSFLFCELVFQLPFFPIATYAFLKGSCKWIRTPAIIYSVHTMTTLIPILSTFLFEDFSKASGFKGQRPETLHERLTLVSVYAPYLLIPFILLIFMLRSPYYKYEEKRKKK
Sequence of UniProt O94768 (whole entry, looked up): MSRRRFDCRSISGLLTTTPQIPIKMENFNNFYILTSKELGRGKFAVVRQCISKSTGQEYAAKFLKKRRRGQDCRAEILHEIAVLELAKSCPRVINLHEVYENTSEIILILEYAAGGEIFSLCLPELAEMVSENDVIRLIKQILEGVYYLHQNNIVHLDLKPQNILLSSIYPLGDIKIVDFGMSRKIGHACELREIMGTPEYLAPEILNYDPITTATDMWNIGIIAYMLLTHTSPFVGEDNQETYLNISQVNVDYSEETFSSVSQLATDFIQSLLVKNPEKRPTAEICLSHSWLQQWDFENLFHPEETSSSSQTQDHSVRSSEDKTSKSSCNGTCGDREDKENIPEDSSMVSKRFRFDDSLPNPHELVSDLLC

Structure (SMILES) = N#Cc1ccc(C(=O)N[C@H]2CC[C@@]3(O)[C@H]4Cc5ccc(O)c6c5[C@@]3(CCN4CC3CC3)[C@H]2O6)s1; target = OPRD1; test = ligand displacement, radioligand; setting = cell membranes; endpoint = Ki; value = 29.1 nM
Structure (SMILES) = COC(=O)[C@@H](NC(=O)c1nn(Cc2ccc(F)cc2)c2ccccc12)C(C)(C)C; target = CNR1; test = β-arrestin recruitment, agonist; endpoint = EC50; value = 3.74 nM
Structure (SMILES) = O=C(N[C@H]1CC[C@@]2(O)[C@H]3Cc4ccc(O)c5c4[C@@]2(CCN3CC2CC2)[C@H]1O5)c1ccc([N+](=O)[O-])s1; target = OPRD1; test = ligand displacement, radioligand; setting = cell membranes; endpoint = Ki; value = 23.2 nM
Structure (SMILES) = CNC(C)Cc1ccc2c(c1)OCO2 (stereo not drawn); target = SLC22A1 (Homo sapiens, UniProt O15245); test = transporter uptake, inhibitor; endpoint = Ki; value = 1820 nM
Structure (SMILES) = COc1ccc(CN2CCN(Cc3ccccc3)CC2)cc1; target = TMEM97 (Homo sapiens, UniProt Q5BJF2); test = ligand displacement, radioligand; endpoint = Ki; value = 1180 nM
Structure (SMILES) = CCCCCc1cc(O)c2c(c1)OC(C)(C)c1ccc(C)cc1-2; target = Si (Rattus norvegicus, UniProt P23739); test = enzyme activity, inhibitor, absorbance; endpoint = IC50; value = 370000 nM
Structure (SMILES) = COc1cc(CCNC(C)c2ccccc2O)c(OC)cc1C#N (single isomer, unassigned; (+)); target = HTR2C; test = G protein activation, agonist, BRET; endpoint = EC50; value = 2100 nM
Structure (SMILES) = CC(=O)S(=O)(=O)c1ccc(C(=O)N[C@H]2CC[C@@]3(O)[C@H]4Cc5ccc(O)c6c5[C@@]3(CCN4CC3CC3)[C@H]2O6)s1; target = OPRD1; test = ligand displacement, radioligand; setting = cell membranes; endpoint = Ki; value = 9.49 nM
Structure (SMILES) = Cc1nn(C)cc1-c1nc2c(N3CCN(Cc4ccc(Cl)cc4)CC3)c(Cl)cnc2[nH]1; target = STK17B (Homo sapiens, UniProt O94768); test = binding, competition with immobilised ligand; setting = 1 µM; endpoint = remaining binding; value = 21%
Structure (SMILES) = NCCc1ccc(Oc2ccc(O)cc2)c(I)c1; target = Slc6a3 (Mus musculus, UniProt Q61327); test = ligand displacement, radioligand; endpoint = IC50; value = 720 nM
Structure (SMILES) = CCOC(=O)C1=C(C)NC(=O)NC1c1ccc([N+](=O)[O-])o1 (stereo not drawn); target = Thymidylate kinase (tmk, Mycobacterium tuberculosis, UniProt P9WKE1); test = enzyme activity, inhibitor, absorbance; endpoint = IC50; value = 393 nM
Structure (SMILES) = Cc1nnc2n1-c1ccc(Cl)cc1C(c1ccccc1)=NC2; target = CES2; test = enzyme activity, inhibitor, fluorescence; setting = with preincubation; endpoint = IC50; value = > 100000 nM
Structure (SMILES) = Nc1ncc(-c2nc(N3CCOCC3)nc(N3CCOCC3)n2)c(C(F)F)n1; target = Tyrosine-protein kinase ABL1, phosphorylated (ABL1, Homo sapiens, UniProt P00519, Y253F); test = binding, competition with immobilised ligand; setting = 10 µM; endpoint = remaining binding; value = 63%
Structure (SMILES) = [2H]c1c([2H])c([C@]2([2H])CCCN2C(=O)C(C)(C)Oc2ccc3cn[nH]c3c2)c([2H])c([2H])c1C([2H])([2H])[2H]; target = MAP3K5 (Homo sapiens, UniProt Q99683); test = binding, competition with immobilised ligand; setting = 1 µM; endpoint = remaining binding; value = 85%
Structure (SMILES) = Cc1[nH]c(C)c(-c2ccc(OCCn3cnc(Cl)c3Cl)cc2)c(=O)c1Br; target = PFF0160c; test = enzyme activity, inhibitor, absorbance; endpoint = IC50; value = 1210 nM
Structure (SMILES) = CCC(NCCc1cc(OC)c(C#N)cc1OC)c1ccccc1O (stereo not drawn); target = Htr2c; test = G protein activation, agonist, BRET; endpoint = EC50; value = 3100 nM
Structure (SMILES) = CC(C)[N+](C)(CCC(C(N)=O)(c1ccccc1)c1ccccc1)C(C)C; target = CHRM2 (Homo sapiens, UniProt P08172); test = calcium signal, antagonist; endpoint = IC50; value = 10 nM
Structure (SMILES) = CCCCCn1cc(C(=O)C2C(C)(C)C2(C)C)c2ccccc21; target = CNR1; test = ligand displacement, radioligand; setting = cell membranes; endpoint = Ki; value = < 30 nM and 29 nM
Structure (SMILES) = COc1cc(CCNCc2ccccc2OC)c(OC)cc1Br; target = Htr2a (Mus musculus, UniProt P35363); test = G protein activation, agonist, BRET; endpoint = EC50; value = 0.214 nM
Structure (SMILES) = C[C@]12CC[C@@H](O)C[C@@H]1CC[C@@H]1[C@@H]2CC[C@]2(C)C(=O)CC[C@@H]12; target = CES2; test = enzyme activity, inhibitor, fluorescence; setting = with preincubation; endpoint = IC50; value = > 100000 nM
Structure (SMILES) = O=C(N[C@H]1CC[C@@]2(O)[C@H]3Cc4ccc(O)c5c4[C@@]2(CCN3CC2CC2)[C@H]1O5)c1ccc(Cl)s1; target = OPRD1; test = ligand displacement, radioligand; setting = cell membranes; endpoint = Ki; value = 29 nM
Structure (SMILES) = COc1cc(CCNC(C)c2ccccc2)c(OC)cc1C#N (stereo not drawn); target = Htr2c; test = G protein activation, agonist, BRET; endpoint = EC50; value = 2200 nM
Structure (SMILES) = NS(=O)(=O)c1ccc(C(=O)N[C@H]2CC[C@@]3(O)[C@H]4Cc5ccc(O)c6c5[C@@]3(CCN4CC3CC3)[C@H]2O6)s1; target = OPRD1; test = ligand displacement, radioligand; setting = cell membranes; endpoint = Ki; value = 17.8 nM
Structure (SMILES) = CCN1C[C@]2(OC(=O)c3ccccc3NC(C)=O)CC[C@H](OC)[C@@]34[C@@H]2C[C@@H]([C@@H]13)[C@@]1(O)C[C@H](OC)[C@H]2C[C@@H]4[C@]1(O)[C@H]2OC; target = CES2; test = enzyme activity, inhibitor, fluorescence; setting = with preincubation; endpoint = IC50; value = > 100000 nM
Structure (SMILES) = COc1cc(CCNCc2ccccc2)c(OC)cc1C#N; target = HTR2C; test = G protein activation, agonist, BRET; endpoint = EC50; value = 90 nM
Structure (SMILES) = O=C(N[C@H]1CC[C@@]2(O)[C@H]3Cc4ccc(O)c5c4[C@@]2(CCN3CC2CC2)[C@H]1O5)c1ccc(Br)s1; target = OPRD1; test = ligand displacement, radioligand; setting = cell membranes; endpoint = Ki; value = 25.1 nM
Structure (SMILES) = Cc1nnc(N2C(=N)SC(=Cc3ccc(-c4ccc(OC(F)(F)F)cc4)o3)C2=O)s1; target = PFF0160c; test = enzyme activity, inhibitor, absorbance; endpoint = IC50; value = > 10000 nM
